Measurements collected from several papers.
Each line is one published result; not all experiments were run side by side. Numbers after ± are the reported error.

Compound	cell line	test	setting	how to read	measurement	result
CC(C)C[C@H](NC(=O)[C@H](CO)NC(=O)[C@H](C)NC(=O)[C@@H]1CCCN1C(=O)[C@H](Cc1c[nH]c2ccccc12)NC(=O)[C@H](CS)NC(=O)[C@H](CCC(=O)O)NC(=O)[C@H](CC(=O)O)NC(=O)[C@H](CC(N)=O)NC(=O)[C@H](CC(C)C)NC(=O)[C@@H](NC(=O)CNC(=O)[C@H](CC(C)C)NC(=O)[C@H](CO)NC(=O)[C@H](C)NC(=O)[C@H](C)NC(=O)[C@H](C)NC(=O)CNC(=O)[C@H](CCC(=O)O)NC(=O)[C@H](CO)NC(=O)[C@@H]1CCCN1C(=O)[C@H](CC(C)C)NC(=O)[C@H](Cc1ccccc1)NC(=O)[C@H](CCC(N)=O)NC(=O)[C@H](CCC(=O)O)NC(=O)[C@H](CCCNC(=N)N)NC(=O)[C@H](CO)NC(=O)[C@@H](NC(=O)[C@H](C)NC(=O)[C@H](C)N)[C@@H](C)O)[C@@H](C)O)C(=O)O	MELOE-1 36-44 specific CD8 T cell clone	TNFα production	cross-presentation, added: mature dendritic cells	–	EC50	0.013 µM
CCCCCN[C@H]1C=C[C@]2(O[C@H]([C@@H](CC)C(=O)[C@@H](C)[C@@H](O)[C@H](C)[C@@H]3O[C@@H]([C@@H](CC)C(=O)O)CC[C@@H]3C)[C@@H](C)C[C@H]2C)O[C@@]12CC[C@@](C)([C@H]1CC[C@](O)(CC)[C@H](C)O1)O2	HMLER CD24low/CD44high	cell viability, CellTiter-Blue	72 h	relative to: IC50 HMLER CD24high/CD44low over CD24low/CD44high	selectivity ratio	10.8
C=CCc1ccc(OC(=O)COC(=O)Cn2cnc3c2c(=O)n(C)c(=O)n3C)c(OC)c1	RAW264.7	ELISA, refers to: IL-1β	1 µM, added: LPS	relative to: LPS alone	inhibition	43.4%
CN1c2ccc(OC(=O)Nc3ccncc3)cc2C2(C)CCOC12 (stereo not shown)	donor cells	tunable resistive pulse sensing	20 µM	relative to: DMSO	EV size distribution	no effect
CCCc1cc(OC)c(OC)c(OC)c1OC	A-375	cell growth or viability, MTT	72 h	–	GI50	> 250 µM
CC(C)C[C@H](NC(=O)[C@H](C)NC(=O)[C@H](CCCCN)NC(=O)CCNC(=S)Nc1ccc2c(c1)C(=O)OC21c2ccc(O)cc2Oc2cc(O)ccc21)C(=O)N[C@@H](CCC(=O)O)C(=O)N[C@H](C(=O)N[C@@H](CC(C)C)C(=O)N[C@@H](CCCNC(=N)N)C(=O)N[C@@H](CCCNC(=N)N)C(=O)N[C@H](C(=O)NCC(=O)N[C@@H](CC(=O)O)C(=O)NCC(=O)N[C@H](C(=O)N[C@@]1(C)CCC/C=C\CCC[C@@](C)(C(=O)N[C@H](C(=O)N[C@@H](C)C(=O)N[C@@H](Cc2ccccc2)C(N)=O)[C@@H](C)O)NC(=O)[C@H](Cc2c[nH]cn2)NC(=O)[C@H](CC(N)=O)NC(=O)[C@H](CCCNC(=N)N)NC1=O)C(C)C)C(C)C)[C@@H](C)O	OPM-2	MTT	concentration not given, 24 h, added: low-dose FasL	–	viability	no effect
Cc1cc(Nc2nc(C[C@@]3(C(=O)O)CCN(Cc4cccc(Cl)c4F)[C@H](C)C3)cc(C)c2F)[nH]n1	NCI-H446	cell cycle, flow cytometry	concentration not given, 24 h	–	G2/M phase cells	increased
CC[C@H](C)[C@H](NC(=O)[C@H](Cc1ccccc1)NC(=O)[C@H](CC(=O)O)NC(=O)[C@H](CCCCN)NC(=O)[C@H](C)NC(=O)[C@H](CCCCN)NC(=O)[C@H](CC(N)=O)NC(=O)[C@H](CC(C)C)NC(=O)[C@H](Cc1c[nH]c2ccccc12)NC(=O)[C@H](CCC(=O)O)NC(=O)[C@H](CCCCN)NC(=O)[C@H](Cc1c[nH]c2ccccc12)NC(=O)CNC(=O)[C@H](C)N)C(=O)N[C@@H](CCCCN)C(=O)N[C@@H](CCC(=O)O)C(=O)N[C@@H](CCCCN)C(=O)NCC(=O)N[C@@H](CC(C)C)C(=O)NCC(=O)N[C@@H](CCSC)C(=O)N[C@@H](CC(C)C)C(=O)N[C@@H](CO)C(=O)N[C@@H](C)C(=O)N[C@@H](C)C(=O)N[C@@H](C)C(=O)N[C@@H](CC(N)=O)C(=O)N[C@@H](C)C(=O)N[C@@H](C)C(=O)N[C@@H](CC(C)C)C(=O)N[C@@H](CC(N)=O)C(=O)O	HEK293 cells	intracellular calcium, FLIPR	0.1% BSA	–	EC50	> 100 µM
CNC(=O)c1cc(Oc2ccc(NC(=O)c3cc(-c4ccc(COC(=O)CCC(=O)OC5OC6OC7(C)CCC8C(C)CCC(C5C)C68OO7)cc4)ccn3)cc2)ccn1 (stereo not shown)	Huh-7	cell growth or viability, MTT	72 h	–	IC50	12.8 µM
C[P+](c1ccccc1)(c1ccccc1)c1ccccc1	A-375	cell growth or viability, MTT	72 h	–	GI50	33.3 µM
CC(C)CC(O)(CC(C)C)c1cn(C(=O)N2CCCC2)nn1	mouse T-cells	N-terminal labeled proteins, N-terminal enrichment proteomics, refers to: SERF2	1 nM, 6 h	relative to: DMSO	SILAC ratio	2.66 ± 0.15
CN(C)c1ccc(/C=C2\Oc3cc(O)ccc3C2=O)cc1	PC-9 ERO1α knockout	cell viability, MTT	72 h	relative to: parental PC-9 cells	fold resistance	2 to 3 fold
COc1cc(C)c(OC)c(OC)c1OC	DU-145	cell growth or viability, MTT	72 h	–	GI50	> 250 µM
CC[C@H](C)[C@H](NC(=O)[C@H](Cc1ccccc1)NC(=O)[C@H](CC(=O)O)NC(=O)[C@H](CCCCN)NC(=O)[C@H](C)NC(=O)[C@H](CCCCN)NC(=O)[C@H](CC(N)=O)NC(=O)[C@H](CC(C)C)NC(=O)[C@H](Cc1c[nH]c2ccccc12)NC(=O)[C@H](CCC(=O)O)NC(=O)[C@H](CCCCN)NC(=O)[C@@H](NC(=O)CNC(=O)[C@H](C)N)[C@@H](C)O)C(=O)N[C@@H](CCCCN)C(=O)N[C@@H](CCC(=O)O)C(=O)N[C@@H](CCCCN)C(=O)NCC(=O)N1CCC[C@H]1C(=O)NCC(=O)N[C@@H](CCSC)C(=O)N[C@@H](CC(C)C)C(=O)N[C@@H](CO)C(=O)N[C@@H](C)C(=O)N[C@@H](C)C(=O)N[C@@H](C)C(=O)N[C@@H](CC(N)=O)C(=O)N[C@@H](C)C(=O)N[C@@H](C)C(=O)N[C@@H](CC(C)C)C(=O)N[C@@H](CC(N)=O)C(=O)O	F11 cells	intracellular calcium, FLIPR	0.1% BSA	–	EC50	> 100 µM
C[C@@H](O)[C@@H]1NC(=O)[C@H](CCCCN)NC(=O)CCC(=O)NCCCC[C@@H](C(=O)NCC(=O)NCC(=O)N[C@@H](Cc2ccc(O)cc2)C(=O)NCC(=O)N[C@@H](CCCNC(=N)N)C(=O)N[C@@H](CCCCN)C(=O)N[C@@H](CCCCN)C(=O)N[C@@H](CCCNC(=N)N)C(=O)N[C@@H](CCCNC(=N)N)C(=O)N[C@@H](CCC(N)=O)C(=O)N[C@@H](CCCNC(=N)N)C(=O)N[C@@H](CCCNC(=N)N)C(=O)N[C@@H](CCCNC(=N)N)C(N)=O)NC(=O)[C@H](CCCCN)NC(=O)[C@H](CCC(=O)O)NC(=O)[C@H](CC(=O)O)NC(=O)CNC1=O	Huh-7	apoptosis, flow cytometry	40 µM, 16 h	–	caspase-3 positive cells	2.33%
CC/C=C\C/C=C\C/C=C\C/C=C\C/C=C\C/C=C\CCC(=O)Nc1ccn(C2OC(CO)C(O)C2(F)F)c(=O)n1 (stereo not shown)	UACC-257	NCI60 screen	–	–	CC50	56.1 µM
CC[C@H](C)[C@H](NC(=O)[C@H](CC(C)C)NC(=O)[C@@H](NC(=O)[C@@H](NC(=O)[C@H](CCSC)NC(C)=O)[C@@H](C)CC)[C@@H](C)CC)C(=O)N[C@H](C(=O)N[C@@H](CO)C(=O)N[C@@H](Cc1ccccc1)C(=O)N1CCC[C@H]1C(=O)N[C@@H](CCCCN)C(=O)N[C@@H](Cc1c[nH]cn1)C(=O)N[C@@H](CCCCN)C(=O)N[C@@H](CC(=O)O)C(=O)N[C@@H](Cc1c[nH]c2ccccc12)C(=O)N[C@@H](CCCCN)C(=O)N[C@H](C(=O)N[C@H](C(=O)N[C@@H](CC(C)C)C(=O)N[C@H](C(=O)N[C@@H](CCCCN)C(N)=O)C(C)C)[C@@H](C)CC)C(C)C)[C@@H](C)CC	SLE patient PBMCs	–	dose not given	–	TNF-α production	inhibited
N=C(N)Nc1ccc(-c2nc3ccc(-c4ccc5nc(-c6ccc(NC(=N)N)cc6)[nH]c5c4)cc3[nH]2)cc1	sample A patient fibroblasts	MBNL1 exon 5 splicing rescue	–	–	lowest effective concentration	10 µM
Cc1cc(C)c(-n2ccn(-c3c(C)cc(C)cc3C)c2=[Se])c(C)c1.[Cl][Ag]	A2780 ADR	MTT	–	relative to: A2780 ADR over A2780	resistance factor	0.8
CN1C(=O)C2(Cc3ccc(CC45SSC(CO)(C(=O)N4C)N(C)C5=O)cc3)SSC1(CO)C(=O)N2C (racemic)	MCF7	microarray, refers to: CDKN1A	600 nM, unit not given, added: deferoxamine 300 µM	relative to: deferoxamine alone	mRNA level change	-1.4
CC[C@@]1(O)C(=O)OCc2c1cc1n(c2=O)Cc2cc3cc(OC(=O)CCCC(=O)NCC(=O)N[C@@H](Cc4ccccc4)C(=O)N[C@@H](Cc4ccccc4)C(=O)N[C@@H](Cc4ccc(O)cc4)C(=O)NCCS)ccc3nc2-1	HepG2 spheroids	confocal microscopy	100 µM, 6 h	–	penetration depth	~50 µm
C[C@H](NC(=O)[C@H](CCCNC(=N)N)NC(=O)[C@H](CCC(=O)O)NC(=O)[C@H](CCCNC(=N)N)NC(=O)[C@H](CCCNC(=N)N)NC(=O)[C@@H](NC(=O)[C@H](CCCNC(=N)N)NC(=O)[C@H](C)NC(=O)[C@H](CCCNC(=N)N)NC(=O)[C@H](CCC(=O)O)NC(=O)[C@@H](N)CCCNC(=N)N)[C@@H](C)O)C(=O)N[C@@H](CCCNC(=N)N)C(=O)N[C@H](C(=O)N[C@@H](CCCNC(=N)N)C(=O)N[C@@H](CCC(=O)O)C(=O)N[C@@H](CCCNC(=N)N)C(=O)N[C@@H](C)C(=O)N[C@@H](CCCNC(=N)N)C(=O)N[C@H](C(=O)N[C@@H](CCCNC(=N)N)C(=O)O)[C@@H](C)O)[C@@H](C)O	A-375	RT-PCR and western blot, refers to: VEGF165b mRNA and protein	concentration not given	–	expression level	increased
CCCc1cc(OC)c2c(c1)OCO2	T47D	cell growth or viability, MTT	72 h	–	GI50	100 µM
Cc1cc(C)c(N2CCN(c3c(C)cc(C)cc3C)C2=[Se])c(C)c1.[Cl][Au]	H157 spheroids	acid phosphatase	72 h, 3D spheroid	–	IC50	8.6 ± 0.4 µM
CCC[P+](c1ccccc1)(c1ccccc1)c1ccccc1	T47D	cell growth or viability	72 h	–	GI50	3.45 µM
COc1cc(-c2oc3cc(O)c(OC)c(O)c3c(=O)c2OC)ccc1O	human Neutrophil	superoxide release, inhibitor, absorbance	–	–	IC50	4.76 µM
C=C1C(=O)O[C@H]2[C@H]1CCC(C)=C1[C@H](OC(=O)c3cn[nH]c3-c3ccccc3)C[C@@](C)(O)[C@@H]12	M9-ENL1 leukaemia cells	annexin V/7-AAD flow cytometry	24 h, 5% human plasma	–	CC50	9.5 µM
COc1cc(C)c(OC)c2c1OCO2	A-375	cell growth or viability, MTT	72 h	–	GI50	> 250 µM

A few entries again:
Compound	cell line	test	setting	how to read	measurement	result
Cc1cc(C)c(-n2ccn(-c3c(C)cc(C)cc3C)c2=[Se])c(C)c1.[Cl][Ag]	A2780 ADR	MTT	–	relative to: A2780 ADR over A2780	resistance factor	0.8
CC[C@H](C)[C@H](NC(=O)[C@H](Cc1ccccc1)NC(=O)[C@H](CC(=O)O)NC(=O)[C@H](CCCCN)NC(=O)[C@H](C)NC(=O)[C@H](CCCCN)NC(=O)[C@H](CC(N)=O)NC(=O)[C@H](CC(C)C)NC(=O)[C@H](Cc1c[nH]c2ccccc12)NC(=O)[C@H](CCC(=O)O)NC(=O)[C@H](CCCCN)NC(=O)[C@@H](NC(=O)CNC(=O)[C@H](C)N)[C@@H](C)O)C(=O)N[C@@H](CCCCN)C(=O)N[C@@H](CCC(=O)O)C(=O)N[C@@H](CCCCN)C(=O)NCC(=O)N1CCC[C@H]1C(=O)NCC(=O)N[C@@H](CCSC)C(=O)N[C@@H](CC(C)C)C(=O)N[C@@H](CO)C(=O)N[C@@H](C)C(=O)N[C@@H](C)C(=O)N[C@@H](C)C(=O)N[C@@H](CC(N)=O)C(=O)N[C@@H](C)C(=O)N[C@@H](C)C(=O)N[C@@H](CC(C)C)C(=O)N[C@@H](CC(N)=O)C(=O)O	F11 cells	intracellular calcium, FLIPR	0.1% BSA	–	EC50	> 100 µM
